Values quoted from earlier work, collected from citations in different studies.
Each numbered part shows a few of the values that one paper quotes. ± gives the spread as reported. ≈ marks a conversion by molar mass, not a printed value.
UniProt P08684, sequence (whole entry, looked up): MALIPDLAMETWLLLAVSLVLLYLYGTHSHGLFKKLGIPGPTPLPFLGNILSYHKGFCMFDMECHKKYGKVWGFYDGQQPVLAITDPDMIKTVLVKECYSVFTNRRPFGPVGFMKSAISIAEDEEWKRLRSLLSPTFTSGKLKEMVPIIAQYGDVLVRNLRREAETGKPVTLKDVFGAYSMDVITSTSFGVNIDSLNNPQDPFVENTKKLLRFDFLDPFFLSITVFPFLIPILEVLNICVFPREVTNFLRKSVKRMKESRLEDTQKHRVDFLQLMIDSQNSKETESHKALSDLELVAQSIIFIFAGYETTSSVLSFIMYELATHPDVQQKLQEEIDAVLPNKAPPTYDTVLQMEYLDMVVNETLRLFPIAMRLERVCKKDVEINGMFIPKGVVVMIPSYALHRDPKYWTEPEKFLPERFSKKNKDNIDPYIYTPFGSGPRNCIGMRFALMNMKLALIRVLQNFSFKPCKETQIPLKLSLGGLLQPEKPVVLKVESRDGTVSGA
UniProt P21553, sequence (whole entry, looked up): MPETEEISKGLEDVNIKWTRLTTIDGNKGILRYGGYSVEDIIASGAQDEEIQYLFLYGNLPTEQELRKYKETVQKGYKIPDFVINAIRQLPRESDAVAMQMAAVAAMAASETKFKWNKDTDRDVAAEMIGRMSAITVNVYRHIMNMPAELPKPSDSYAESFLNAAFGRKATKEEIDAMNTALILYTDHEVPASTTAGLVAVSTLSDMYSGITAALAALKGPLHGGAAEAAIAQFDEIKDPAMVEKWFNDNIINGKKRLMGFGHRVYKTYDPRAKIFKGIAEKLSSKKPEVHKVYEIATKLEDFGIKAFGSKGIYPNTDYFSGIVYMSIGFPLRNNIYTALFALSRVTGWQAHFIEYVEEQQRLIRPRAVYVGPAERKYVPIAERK

Series 1 — effect on: peptide-MHC binding; form: peptide; quantity: IC50
Target: HLA class I histocompatibility antigen, A alpha chain, allele A*80:01 (Homo sapiens, UniProt P04439)
HAEQGLIQY: > 20 µM
ITLFPSYQL: > 20 µM
WHTTKGAAL: > 20 µM
EIKDRILSY: 2.37 µM
SSLLWGFYL: > 20 µM
DEFLKVPEW: > 20 µM
MEDCPNEGV: > 20 µM
WTLAKPDFV: > 20 µM
HHYSQAAVL: > 20 µM
LKEKSSLRY: > 20 µM
GTGDSRLTY: 0.201 µM
AFFAERLYY: 0.0197 µM
MPWLDNIVE: > 20 µM
FQAGWEDPT: > 20 µM
KSAAIDGEY: 0.0447 µM
KLADYLLLQ: > 20 µM
KEAVNHFHL: > 20 µM
SAYYLDIGF: > 20 µM
DSPATLSAY: > 20 µM
KVVPRRKAK: 20 µM
LSIIFGRSY: > 20 µM
NRDVSFQDL: > 20 µM
SSDDFALIV: 0.225 µM
PSYQLPLPM: > 20 µM
FLRKNQRAL: > 20 µM

Further values, each from its own experiment
ache: Acetylcholinesterase (ache, Electrophorus electricus, UniProt O42275)
UniProt O42275, sequence (whole entry, looked up): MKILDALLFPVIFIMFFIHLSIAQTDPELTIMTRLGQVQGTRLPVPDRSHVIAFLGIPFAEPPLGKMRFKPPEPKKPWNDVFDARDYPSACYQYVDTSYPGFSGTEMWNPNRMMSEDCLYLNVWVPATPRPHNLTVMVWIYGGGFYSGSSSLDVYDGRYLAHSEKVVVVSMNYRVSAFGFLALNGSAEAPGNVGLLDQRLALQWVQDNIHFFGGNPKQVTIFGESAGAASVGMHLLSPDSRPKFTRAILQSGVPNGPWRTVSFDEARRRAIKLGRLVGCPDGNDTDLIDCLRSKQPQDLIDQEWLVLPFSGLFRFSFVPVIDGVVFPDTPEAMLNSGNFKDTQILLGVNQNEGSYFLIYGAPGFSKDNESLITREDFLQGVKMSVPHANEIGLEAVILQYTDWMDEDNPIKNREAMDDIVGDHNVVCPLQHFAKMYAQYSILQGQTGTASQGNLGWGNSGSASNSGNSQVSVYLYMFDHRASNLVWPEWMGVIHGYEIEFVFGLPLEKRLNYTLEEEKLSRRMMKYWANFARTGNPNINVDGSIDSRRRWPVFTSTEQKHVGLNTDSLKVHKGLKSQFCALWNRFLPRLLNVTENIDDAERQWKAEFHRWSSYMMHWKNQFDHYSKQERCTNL
[H]/N=C(/N)N[C@H]1[C@H](O)[C@@H](O)[C@H](O[C@@H]2O[C@@H](C)[C@](O)(C=O)[C@H]2O[C@@H]2O[C@@H](CO)[C@H](O)[C@@H](O)[C@@H]2NC)[C@@H](N/C(N)=N\[H])[C@@H]1O  Kd (bacterial 30S ribosomal protein S12; -25): ~1000 nM
Cc1cccc2c1ccc1cc(C(C)C)ccc12  metabolism rate (pooled human liver microsomes; 2.5 µM): 56.7 pmol/min/mg
O=C(/C=C/c1ccc(O)c(O)c1)O[C@H](Cc1ccc(O)c(O)c1)C(=O)O  Ki (ache): 0.042 nM
CC1(C)[C@@H]2CC[C@@]1(C)[C@@H](N1C(=O)c3c(F)c(F)c(F)c(F)c3C1=O)C2  lowest effective concentration (RAW264.7; TNF-α and nitrite reduction; with: LPS): 100 nM
Cc1cc(-c2nccc3c2ccn3CC(=O)Nc2ccc(-c3cnccn3)cn2)ccn1  NOAEL (rat; bone findings): 20 mg/kg/day
N#C[C@@]1(c2ccc3c(N)ncnn23)O[C@H](CO)[C@@H](O)[C@H]1O  lung concentration (mouse; oral, 20 mg/kg): 1810 nmol/kg
C[C@]12C=CC(=O)C=C1CC[C@@H]1[C@@H]2C(=O)C[C@@]2(C)[C@H]1CC[C@]2(O)C(=O)CO  AUC (human, plasma; dose not given, range of reported values): 0.32 to 6.24 µM·h
CN1CC[C@]23c4c5ccc(O)c4O[C@H]2[C@@H](O)CC[C@H]3[C@H]1C5  logD (pH 7.4): -0.47
O=C(O)C(F)(F)C(F)(F)C(F)(F)C(F)(F)C(F)(F)C(F)(F)C(F)(F)F  Kd (human serum albumin; binding; three low-affinity sites, combined): 27100 nM
COc1ccc2c3c1O[C@H]1[C@@H](O)CC[C@H]4[C@@H](C2)N(C)CC[C@@]341  logD (pH 7.4): -0.34
CCC(CC)COC(=O)[C@H](C)N[P@](=O)(OC[C@H]1O[C@@](C#N)(c2ccc3c(N)ncnn23)[C@H](O)[C@@H]1O)Oc1ccccc1  lung concentration (mouse; 20 mg/kg, 2 h): 527 nmol/kg
O=C(O)CC(=O)C(=O)O  Kd (Thermoplasma acidophilum citrate synthase W17F/W115F/W245F; fluorescence titration; 20 °C, unliganded enzyme): 1200 nM
CCN(CC)CCNC(=O)c1cc(Br)c(N)cc1OC  IC50 (butyrylcholinesterase (rat plasma); inhibitor): 67.8 µM
CCOc1ccccc1OCCN[C@H](C)Cc1ccc(OC)c(S(N)(=O)=O)c1  AUC (human, plasma; dose not given, range of reported values): 0.067 to 0.972 µM·h
c1ccc2c(c1)OCC(C1=NCCN1)O2 (stereo not drawn)  Ki (imidazoline I2 receptor; binding; central nervous system; historical reference value): 8 nM
CCCCCc1cc(O)c2c(c1)OC(C)(C)c1ccc(C)cc1-2  inhibition (CYP1A2, human; enzyme activity, inhibitor; human liver microsomes; 10 µM): inhibited
CN[C@@]1(c2ccccc2Cl)CCCCC1=O  Cmax (mouse; dose not given, with: 1-ABT and ticlopidine; reference: without CYP inhibitors): increased
CCCCCc1cc(O)c2c(c1)OC(C)(C)[C@@H]1CCC(C)=C[C@@H]21  inhibition (CYP3A human; human liver microsomes; 10 µM): inhibited
COc1ccc(C[C@H]2NC[C@H](O)[C@H]2OC(C)=O)cc1  IC50 (Plasmodium): 0.1 µM
CC(C)(COP(=O)(O)OP(=O)(O)OC[C@H]1O[C@@H](n2cnc3c(N)ncnc32)[C@H](O)[C@@H]1OP(=O)(O)O)[C@@H](O)C(=O)NCCC(=O)NCCSCC(=O)O  Kd (gltA, with oxaloacetate (Thermoplasma acidophilum, UniProt P21553)): ~23 nM
CN[C@H](CC(C)C)C(=O)N[C@H]1C(=O)N[C@@H](CC(N)=O)C(=O)N[C@H]2C(=O)N[C@H]3C(=O)N[C@H](C(=O)N[C@H](C(=O)O)c4cc(O)cc(O)c4-c4cc3ccc4O)[C@H](O)c3ccc(c(Cl)c3)Oc3cc2cc(c3O[C@@H]2O[C@H](CO)[C@@H](O)[C@H](O)[C@H]2O[C@H]2C[C@](C)(N)[C@H](O)[C@H](C)O2)Oc2ccc(cc2Cl)[C@H]1O  nephrotoxicity incidence (Sprague Dawley rat; dose not given, 10 days): 60%
CC(=O)O[C@@]12CO[C@@H]1C[C@H](O)[C@@]1(C)C(=O)[C@H](OC(=O)C3CC3)C3=C(C)[C@@H](OC(=O)[C@H](O)[C@H](C=C(C)C)NC(=O)OC(C)(C)C)C[C@@](O)([C@@H](OC(=O)c4ccccc4)[C@H]21)C3(C)C  IC50 (HCT-116; cytotoxicity): 0.00223 µM
c1cc([C@H]2CC[C@]3(CC2)OO[C@]2(O3)C3CC4CC(C3)CC2C4)ccc1OCCN1CCOCC1  thermodynamic solubility (FeSSIF; pH 5.0): 536 µg/mL (≈ 1140 µM)
CNCCN1C(=O)[C@H](OC(C)=O)[C@H](c2ccc(OC)cc2)Sc2ccccc21  kinact (Cytochrome P450 3A4 (CYP3A4, Homo sapiens, UniProt P08684); enzyme activity, mechanism-based inhibitor): 1.09 h⁻¹
COC(=O)[C@@H]1C[C@H](OC(C)=O)C(=O)[C@H]2[C@@]1(C)CC[C@H]1C(=O)O[C@H](c3ccoc3)C[C@]21C  Ki (kappa opioid receptor V118K): 846 ± 176 nM
CCCCCc1cc(O)cc(O)c1  Ki (ache): 65.9 nM

Excerpt of the above (further values, each from its own experiment):
O=C(O)CC(=O)C(=O)O  Kd (Thermoplasma acidophilum citrate synthase W17F/W115F/W245F; fluorescence titration; 20 °C, unliganded enzyme): 1200 nM
CC(C)(COP(=O)(O)OP(=O)(O)OC[C@H]1O[C@@H](n2cnc3c(N)ncnc32)[C@H](O)[C@@H]1OP(=O)(O)O)[C@@H](O)C(=O)NCCC(=O)NCCSCC(=O)O  Kd (gltA, with oxaloacetate (Thermoplasma acidophilum, UniProt P21553)): ~23 nM
c1cc([C@H]2CC[C@]3(CC2)OO[C@]2(O3)C3CC4CC(C3)CC2C4)ccc1OCCN1CCOCC1  thermodynamic solubility (FeSSIF; pH 5.0): 536 µg/mL (≈ 1140 µM)
CCN(CC)CCNC(=O)c1cc(Br)c(N)cc1OC  IC50 (butyrylcholinesterase (rat plasma); inhibitor): 67.8 µM
